Measured values gathered from unrelated publications.
Each line is one published result; not all experiments were run side by side.
BRD4 BD2: Bromodomain-containing protein 4, BD2 (BRD4, Homo sapiens, UniProt O60885)
BRD4 BD1: Bromodomain-containing protein 4, BD1 (BRD4, Homo sapiens, UniProt O60885)

Compound = COc1cc(-c2cn(C)c(=O)c3cnccc23)cc(OC)c1CN(C)C; target = BRD4 BD2; quantity = ΔTm; value = 0.6 °C
Compound = CC(=O)N1c2ccc(-c3ccc(CNC(=O)c4cn5cc(-c6cnc(N)nc6)nc(N6CCOCC6)c5n4)cc3)cc2CC[C@@H]1C; target = BRD4 BD2; assay = binding, competition with immobilised ligand; setting = 10 µM; quantity = remaining binding; value = 0%
Compound = CCn1cc(-c2cccc(C(F)(F)F)c2)c2sc(C(=N)NC3CCS(=O)(=O)CC3)cc2c1=O; target = BRD4 BD2; setting = 1 µM; quantity = inhibition; value = -5.86%
Compound = O=C1CCCN1c1cccc(NS(=O)(=O)c2cccc(F)c2)c1; target = BRD4 BD1; assay = thermal stability, DSF; quantity = ΔTm; value = -0.12 °C
Compound = N=C(N)NCCC[C@@H]1NC(=O)[C@H](Cc2ccccc2)NC(=O)CSC[C@@H](C(=O)N[C@@H](CC(=O)O)C(N)=O)NC(=O)[C@H](CCCNC(=N)N)NC(=O)[C@H](Cc2c[nH]c3ccccc23)NC(=O)[C@H](Cc2ccc(O)cc2)NC(=O)[C@H](Cc2ccc(O)cc2)NC(=O)[C@H](Cc2ccccc2)NC1=O; target = BRD4 BD1; assay = thermal stability, DSF; setting = 50 µM; quantity = ΔTm; value = -0.56 °C
Compound = Cn1cc(-c2cc(N3CCCCS3(=O)=O)ccc2N[C@H]2CC[C@H](C)CC2)c2cc[nH]c2c1=O (stereo in doubt); target = BRD4 BD2; assay = binding, competition with immobilised ligand; setting = 1 µM; quantity = remaining binding; value = 1.4%
Compound = O=C1CCCN1c1cccc(NS(=O)(=O)c2ccc(F)c(Cl)c2)c1; target = BRD4 BD1; assay = thermal stability, DSF; quantity = ΔTm; value = -0.21 °C
Compound = Cc1sc2c(c1C)C(c1ccc(Cl)cc1)=N[C@@H](CC(=O)NCCN(C)CCCCNC(=O)CCCCOc1cccc3c1C(=O)N([C@H]1CCC(=O)NC1=O)C3=O)c1nnc(C)n1-2; target = Bromodomain-containing protein 4, short isoform (BRD4, Homo sapiens, UniProt O60885); assay = degrader, Western blot, item: BRD4 short isoform; test system = MV4-11; quantity = Dmax; value = 78.4%
Compound = CC[C@H](C)[C@@H]1NC(=O)[C@H](Cc2ccc(O)cc2)NC(=O)[C@H](Cc2ccccc2)NC(=O)[C@H](C(C)C)NC(=O)[C@H](Cc2ccccc2)NC(=O)CSC[C@@H](C(=O)N[C@@H](Cc2c[nH]cn2)C(N)=O)NC(=O)[C@H](CC(N)=O)NC(=O)[C@H](Cc2c[nH]c3ccccc23)NC1=O; target = BRD4 BD1; assay = thermal stability, DSF; setting = 200 µM; quantity = ΔTm; value = 1.65 °C
Compound = COc1ccc(Br)cc1S(=O)(=O)Nc1cccc(N2CCCC2=O)c1; target = BRD4 BD1; assay = thermal stability, DSF; quantity = ΔTm; value = 0.62 °C
Compound = CC[C@H](C)[C@@H]1NC(=O)[C@H](Cc2c[nH]c3ccccc23)NC(=O)[C@H](C)NC(=O)[C@H](Cc2ccc(O)cc2)NC(=O)CNC(=O)[C@H](Cc2ccccc2)N(C)C(=O)[C@H](C)N(C)C(=O)[C@H](Cc2ccc(O)cc2)NC(=O)[C@H](C(C)C)NC(=O)[C@H](CC(C)C)NC(=O)[C@H](Cc2ccccc2)NC(=O)CSC[C@@H](C(=O)NCC(N)=O)NC1=O; target = BRD4 BD1; assay = thermal stability, DSF; setting = 50 µM; quantity = ΔTm; value = -0.02 °C
Compound = Cc1cnc(Nc2ccc(OCCN3CCCC3)cc2)nc1Nc1cccc(S(=O)(=O)NC(C)(C)C)c1; target = BRD4 BD1; setting = 50 µM; quantity = inhibition; value = 99.8%
Compound = CCOc1ccc(C(C)=O)cc1NC(=O)c1cccc(C(=O)O)c1; target = BRD4 BD1; assay = binding, BROMOscan competition binding; how to read = relative to: Kd CBP over Kd BRD4 bromodomain 1; quantity = selectivity ratio; value = < 0.02
Compound = CN(C(=O)[C@@H]1CSCC(=O)N[C@@H](Cc2ccccc2)C(=O)N[C@@H](CO)C(=O)N[C@@H](Cc2ccccc2)C(=O)N[C@@H](Cc2ccc(O)cc2)C(=O)N[C@@H](Cc2ccc(O)cc2)C(=O)N[C@@H](Cc2c[nH]cn2)C(=O)N[C@@H](Cc2c[nH]c3ccccc23)C(=O)N1)[C@@H](Cc1ccccc1)C(N)=O; target = BRD4 BD1; assay = thermal stability, DSF; setting = 50 µM; quantity = ΔTm; value = -0.59 °C

A few entries again:
Compound = CC[C@H](C)[C@@H]1NC(=O)[C@H](Cc2ccc(O)cc2)NC(=O)[C@H](Cc2ccccc2)NC(=O)[C@H](C(C)C)NC(=O)[C@H](Cc2ccccc2)NC(=O)CSC[C@@H](C(=O)N[C@@H](Cc2c[nH]cn2)C(N)=O)NC(=O)[C@H](CC(N)=O)NC(=O)[C@H](Cc2c[nH]c3ccccc23)NC1=O; target = BRD4 BD1; assay = thermal stability, DSF; setting = 200 µM; quantity = ΔTm; value = 1.65 °C
Compound = COc1ccc(Br)cc1S(=O)(=O)Nc1cccc(N2CCCC2=O)c1; target = BRD4 BD1; assay = thermal stability, DSF; quantity = ΔTm; value = 0.62 °C
